Measurements from different studies.
Protocols differ between the studies behind these lines. ± gives the spread as reported.
TNKS2: Poly [ADP-ribose] polymerase tankyrase-2 (TNKS2, Homo sapiens, UniProt Q9H2K2)
DRD3: D(3) dopamine receptor (DRD3, Homo sapiens, UniProt P35462)
CDK2 with cyclin A: Cyclin-dependent kinase 2, with cyclin A (CDK2, Homo sapiens, UniProt P24941)

SMILES	tested on	test	test system	setting	how to read	measurement	result
CC(C)Oc1c(NC(=O)c2ccc(N3C(=O)C[C@H](NC(=O)c4cc(F)c(/N=N/c5c(F)cccc5F)c(F)c4)C3=O)cc2)ccc(C(=O)N/N=C/c2c(Cl)cncc2Cl)c1O	DNA gyrase (gyrA/gyrB, Escherichia coli, UniProt P0AES4+P0AES6)	DNA supercoiling, inhibitor	–	30 min, 37 °C, dark thermally adapted state, added: relaxed pUC19 DNA	–	IC50	> 25 µM
COc1cccc(Cn2nnc3c4ccc(F)cc4c(=O)[nH]c32)c1	TNKS2	inhibitor	–	–	–	IC50	0.107 µM
Cc1[nH]c(C)c(S(=O)(=O)Nc2ccnc3c(C(F)(F)F)cccc23)c1C(=O)N1CCC(F)(F)C1	DRD3	β-arrestin recruitment, antagonist, PathHunter	–	added: dopamine EC80	–	IC50	> 100 µM
O=C(/C=C/c1cccc(OS(=O)(=O)Oc2ccc(C(F)(F)F)cc2)c1)NO	Histone deacetylase 3, with NCoR2 DAD (HDAC3, Homo sapiens, UniProt O15379)	enzyme activity, inhibitor, fluorogenic	–	added: substrate 20 µM	–	IC50	0.194 µM
Cc1ccc(NS(=O)(=O)c2c(C)[nH]c(C)c2C(=O)N2CCC(F)(F)C2)cn1	DRD3	β-arrestin recruitment, antagonist, PathHunter	–	added: dopamine EC80	–	IC50	> 100 µM
O=c1[nH]c2c(nnn2-c2ccccc2)c2ccc(F)cc12	TNKS2	ADP-ribosyltransferase activity, inhibitor, NAD+ consumption fluorescence	–	–	–	IC50	> 10 µM
Cc1ccc(NS(=O)(=O)c2c(C(=O)N3CCC(F)(F)C3)c(C)nn2C)cc1Cl	DRD3	Go activation, antagonist, BRET	–	added: dopamine	–	IC50	> 100 µM
Cc1c(NS(=O)(=O)c2cccc3nonc23)c(=O)n(-c2ccccc2)n1C	CDK2 with cyclin A	–	–	–	–	Kd	> 100 µM
COc1c(Cl)cccc1Nc1c(-c2ccncc2OC[C@@H]2COCCO2)[nH]c2c1C(=O)NCC2	ERBB4 (Homo sapiens, UniProt Q15303)	kinase activity, inhibitor, TR-FRET	–	median value, added: ATP 2 mM	–	IC50	0.014 µM
COc1ccc(Cn2nnc3c4ccc(F)cc4c(=O)[nH]c32)cc1	TNKS2	inhibitor	–	–	–	IC50	0.0316 µM
CC1(C)CC[C@]2(C(=O)O)CC[C@]3(C)C(=CC[C@@H]4[C@@]5(C)CCC(=O)C(C)(C)[C@@H]5CC[C@]43C)[C@@H]2C1	RORC (Homo sapiens, UniProt P51449)	reporter gene, inhibitor, GAL4 dual-luciferase reporter	HEK293T	24 h	–	IC50	2.32 ± 0.22 µM
CC[C@H](C)[C@@H]1NC(=O)[C@H](CCCNC(=N)N)NC(=O)[C@H](CCCNC(=N)N)NC(=O)[C@H](CCCCN)NC(=O)CNC(=O)[C@H](CCCNC(=N)N)NC(=O)[C@H]([C@@H](C)O)NC(=O)[C@H](CCCNC(=N)N)NC(=O)[C@H](C(C)C)NC(=O)[C@H](CCCNC(=N)N)NC(=O)[C@@H]2CCCN2C(=O)[C@H]2CCCN2C(=O)[C@H](CCCNC(=N)N)NC(=O)[C@H](CCCNC(=N)N)NC1=O	human Dicer	pre-miR-21 processing, denaturing gel	–	90 min, 37 °C	–	IC50	~10 µM
Cn1c(COc2cccc3cccnc23)nnc1SCC(N)=O	CDK2 with cyclin A	–	–	–	–	Kd	> 100 µM
O=P(O)(O)Oc1cccc(OP(=O)(O)O)c1OP(=O)(O)O	INPPL1 (Homo sapiens, UniProt O15357)	enzyme activity, inhibitor, malachite green phosphate	–	5 min, 30 °C, untagged enzyme, added: Ins(1,3,4,5)P4 100 µM	–	IC50	> 1000 µM
C=CCN(CC=C)C(=O)c1c(C)[nH]c(C)c1S(=O)(=O)Nc1ccc(C(F)(F)F)c(Cl)c1	DRD3	Go activation, antagonist, BRET	–	added: dopamine	–	IC50	> 100 µM
CC[C@@H]1[C@H](F)C(=O)N[C@@H]1COc1nccc2cc(C(N)=O)c(OC)cc12	MAPK9 (Homo sapiens, UniProt P45984)	ATP-site binding, ActivX KiNativ profiling	THP-1 cell lysate	Lys1 JNK2 probe site	–	IC50	> 5 µM

SMILES	tested on	test	test system	setting	how to read	measurement	result
CCCCN(CCCC)C(=O)c1c(C)[nH]c(C)c1S(=O)(=O)Nc1ccc(C(F)(F)F)c(Cl)c1	DRD3	β-arrestin recruitment, antagonist, PathHunter	–	added: dopamine EC80	–	IC50	> 100 µM
CN1CCC(CNc2ccc3ncc(-c4cccc(OC(F)(F)F)c4)n3n2)CC1	CHRM3 (Homo sapiens, UniProt P20309)	antagonist, cell-based	–	–	–	IC50	8.69 µM
O=C(Nc1ccc(Cl)cc1)c1ccc([N+](=O)[O-])o1	GSR (Homo sapiens, UniProt P00390)	enzyme activity, inhibitor	NCI-H23 cell lysate	–	–	IC50	3.3 µM
CC[C@H](C)[C@H](NC(=O)[C@@H](N)CC(C)C)C(=O)N[C@@H](CCCCN)C(=O)N[C@H](C(=O)N[C@@H](CCCCN)C(=O)N[C@@H](CCCNC(=N)N)C(=O)N[C@@H](CCCCN)C(=O)N[C@@H](CCCNC(=N)N)C(=O)N[C@@H](CCCCN)C(=O)N[C@@H](CCCCN)C(=O)O)[C@@H](C)O	Coagulation factor V, activated factor Va (F5, Homo sapiens, UniProt P12259)	prothrombinase activity, inhibitor	–	–	–	IC50	1 µM
Cc1cccc(Nc2ccccc2C(=O)O)c1C	UGT2B4 (Homo sapiens, UniProt P06133)	enzyme activity, inhibitor	human liver microsomes, 2% BSA	added: canagliflozin below Km	–	IC50	> 100 µM
Cn1cc(-c2ccc(-c3cncc(Cl)c3N3CCC4(CCNC4=O)CC3)cc2)cn1	COLO 205	gene expression, microarray, refers to: HOXC6 mRNA	–	concentration not given, 6 h	reference: untreated cells	log2 fold change	2.51
Cc1ccc(NS(=O)(=O)c2c(C)[nH]c(C)c2C(=O)N2CC(F)(F)C(F)(F)C2)cc1Cl	DRD3	β-arrestin recruitment, antagonist, PathHunter	–	added: dopamine EC80	–	IC50	> 100 µM
CN1CCN(c2ccc(Nc3ncc4cc(C#N)c(=O)n(C5CCCC5)c4n3)cc2)CC1	DCLK2 (Homo sapiens, UniProt Q8N568)	–	–	–	–	IC50	0.333 µM
O=c1[nH]c2c(nnn2Cc2ccccc2C(F)(F)F)c2ccccc12	TNKS2	ADP-ribosyltransferase activity, inhibitor, NAD+ consumption fluorescence	–	–	–	IC50	0.708 µM
O=C(O)CC(O)(CC(=O)O)C(=O)O	HIF1AN (Homo sapiens, UniProt Q9NWT6, Y93A)	enzyme activity, inhibitor	–	pH 7	–	IC50	140 ± 1 µM
Cc1[nH]c(C)c(S(=O)(=O)Nc2ccc(C(F)(F)F)c(Cl)c2)c1C(=O)N1C2CCC1CC2	DRD3	Go activation, antagonist, BRET	–	added: dopamine	–	IC50	> 100 µM
O=C(N/N=C/c1cc2c(s1)CCCC2)c1cccs1	dxs (Deinococcus radiodurans, UniProt Q9RUB5)	inhibitor	–	estimated	–	IC50	105 ± 9.3 µM
Cc1ccc(NS(=O)(=O)c2c(C)[nH]c(C)c2C(=O)NC2CCCC2)cc1Cl	DRD3	β-arrestin recruitment, antagonist, PathHunter	–	added: dopamine EC80	–	IC50	> 100 µM
CCCCCn1nnc2c3ccc(F)cc3c(=O)[nH]c21	TNKS2	inhibitor	–	–	–	IC50	0.174 µM
N#Cc1nc2c(nc1C#N)-c1ccc(Cl)cc1C2=O	USP8 (Homo sapiens, UniProt P40818)	–	–	–	–	IC50	0.22 µM
C=CC(=O)c1ccc2ccccc2c1	F13A1 (Homo sapiens, UniProt P00488)	enzyme activity, inhibitor, biotin-pentylamine incorporation	–	without DTT	–	IC50	0.006 ± 0.005 µM

For quick reference, copied from above:
SMILES	tested on	test	test system	setting	how to read	measurement	result
CN1CCC(CNc2ccc3ncc(-c4cccc(OC(F)(F)F)c4)n3n2)CC1	CHRM3 (Homo sapiens, UniProt P20309)	antagonist, cell-based	–	–	–	IC50	8.69 µM
O=C(O)CC(O)(CC(=O)O)C(=O)O	HIF1AN (Homo sapiens, UniProt Q9NWT6, Y93A)	enzyme activity, inhibitor	–	pH 7	–	IC50	140 ± 1 µM
CCCCCn1nnc2c3ccc(F)cc3c(=O)[nH]c21	TNKS2	inhibitor	–	–	–	IC50	0.174 µM
O=C(/C=C/c1cccc(OS(=O)(=O)Oc2ccc(C(F)(F)F)cc2)c1)NO	Histone deacetylase 3, with NCoR2 DAD (HDAC3, Homo sapiens, UniProt O15379)	enzyme activity, inhibitor, fluorogenic	–	added: substrate 20 µM	–	IC50	0.194 µM
Cc1cccc(Nc2ccccc2C(=O)O)c1C	UGT2B4 (Homo sapiens, UniProt P06133)	enzyme activity, inhibitor	human liver microsomes, 2% BSA	added: canagliflozin below Km	–	IC50	> 100 µM
